Measured values collected from several papers.
Protocols differ between the studies behind these lines. Numbers after ± are the reported error. Converted amounts (≈) assume the structure as drawn.
Organism: Candida albicans

Substance	test	system	setting	MIC
C/C(=N\NC(=N)N)c1cccc(/C(C)=N/NC(=N)N)c1.Cl.Cl		seven strains		≥ 31.3 µg/mL
CCc1nc(N)nc(N)c1C#CC(C)c1ccc(-c2ccc(F)cc2)cc1OC (stereo not drawn)	microbial growth, resazurin	SC5314		1.8 to 7.5 µg/mL (≈ 4.61 to 19.2 µM)
Cl.Cl.N=C(N)N/N=C/c1ccc(-c2cccc(/C=N/NC(=N)N)c2)cc1		seven strains		1 to 3.9 µg/mL
pneumocandin A0	broth microdilution, resazurin	ATCC 90028	24 h, 35 °C	0.8 µg/mL
Cc1cc(C)n(C(N)=S)n1.Cc1ccc(C(C)C)cc1.[Cl][Ru][Cl]	broth microdilution	ATCC 10231	24 to 48 h, 37 °C	250 µg/mL
C[C@@H]1[C@H](O)[C@@H](C)/C=C/C=C/C=C/C=C/C=C/C=C/C=C/[C@H](O[C@@H]2O[C@H](C)[C@@H](O)[C@H](N)[C@@H]2O)C[C@@H]2O[C@](O)(C[C@@H](O)C[C@@H](O)[C@H](O)CC[C@@H](O)C[C@@H](O)CC(=O)O[C@H]1C)C[C@H](O)[C@H]2C(=O)O		seven strains		2 to 3.9 µg/mL (≈ 2.16 to 4.22 µM)
CCc1nc(N)nc(N)c1C#CC(C)c1ccc(-c2ccc(C#N)cc2)cc1OC (stereo not drawn)	microbial growth, resazurin	SC5314		1.8 to 7.5 µg/mL (≈ 4.53 to 18.9 µM)
pneumocandin J	broth microdilution, resazurin	ATCC 90028	24 h, 35 °C	1.6 µg/mL
CCOC(=O)c1c(N)csc1-c1cn(-c2ccccc2)nc1-c1ccc(C)cc1	broth microdilution	clinical urinary isolate	compound gamma-irradiated 10 kGy	0.124 ± 0.5 µg/mL (≈ 0.307 µM)
OB(O)O	broth macrodilution	ATCC 10231	together with: zinc borate 9%	0.0058%
pneumocandin H	broth microdilution, resazurin	ATCC 10231	24 h, 35 °C	0.8 µg/mL
COc1ccc(-c2nc3cc(-c4nc5cc(N6CCN(C)CC6)ccc5[nH]4)ccc3[nH]2)cc1	microbial growth, broth dilution			3.9 to 7.8 µg/mL (≈ 8.89 to 17.8 µM)
